Assay results gathered from unrelated publications.
A part holds a random share of what one study measured.

Sample 1
Target: Interferon regulatory factor 7, full length, phosphomimetic (IRF7, Homo sapiens, UniProt Q92985, residues 1-503, S101K/S471D/S472D/S475D/S476D/S477D/S483D/S484D/S487D)
Technique: protein-binding microarray
Form: double-stranded DNA, one strand shown
Matrix: in vitro
Tested at: 250 nM
Notes: 60-bp whole probe
With: salmon DNA 0.4 mg/ml
Relative to: random background probes
Reading: higher = stronger binding
Constant ends, left off below: GCCTAGCAC … GTCTTGATTCGCTTGACGCTGCTG
Residues (chain): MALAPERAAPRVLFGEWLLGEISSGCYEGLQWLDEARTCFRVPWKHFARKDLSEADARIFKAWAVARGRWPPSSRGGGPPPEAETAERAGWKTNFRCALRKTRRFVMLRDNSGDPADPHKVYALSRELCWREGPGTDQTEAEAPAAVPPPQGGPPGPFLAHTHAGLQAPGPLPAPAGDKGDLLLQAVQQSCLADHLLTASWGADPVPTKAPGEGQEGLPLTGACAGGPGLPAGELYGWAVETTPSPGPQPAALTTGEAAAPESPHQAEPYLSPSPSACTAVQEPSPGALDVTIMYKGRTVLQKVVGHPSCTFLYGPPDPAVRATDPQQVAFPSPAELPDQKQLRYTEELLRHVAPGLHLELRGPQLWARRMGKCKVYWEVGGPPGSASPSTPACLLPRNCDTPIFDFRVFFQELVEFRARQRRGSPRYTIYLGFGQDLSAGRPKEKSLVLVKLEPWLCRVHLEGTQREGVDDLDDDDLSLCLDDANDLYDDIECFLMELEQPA
Strand	log fluorescence [z-score]
TCATATTTTTTTCTAATACTGTGCTAG	1.2
TTAGAACTGTGGACTGGATTAGTGCTA	-0.732
GACGGTTCCGGGACTGGGGACGTGCTA	0.443
GTCGGTTTCGACACTGGGGACGTGCTA	4.51
TCAACATTCACCATGGCACTGTGCTAG	0.24
GACGGACTGGGGACTGGGGCCGTGCTA	-0.831
GTCGGTTTCGACTATCGGGACGTGCTA	6.73
GACGGTTTCGAGTATCGGGACGTGCTA	6.41
TCAGTTTTCCTTCATGTACTGTGCTAG	2.44
ATTGCTTCCTCTTTCACTGGGTGCTAG	1.08
TTGGATTTCAGACTGGATTAGTGCTAG	-0.188
TGTGCCATATTTATCTGCAAGTGCTAG	0.439
TCAAGTTTTGAGCTCTGACTGTGCTAG	-0.153
TTTGAGCTCTGTCTGGGATGGTGCTAG	-0.645
GACGGTAACGACTATCGGGACGTGCTA	-0.667
GACGCTATCGACTATCGGGACGTGCTA	-0.417
TTAGGATTGCTTATCCTTTAGTGCTAG	-0.367
TTAGGACTGGGGTATCGGTTCGTGCTA	1.47
TTTGGTTCCCTTTTCCTTTAGTGCTAG	4.32
TTATGACTGGGTCTCGGTTAGTGCTAG	0.749
TTAGATATCAGTATCGAATAGTGCTAG	0.426
GACGGTTTCGGGACTGGTGACGTGCTA	3.85
TGAGGACTGCTACTGCTTTAGTGCTAG	-0.952

Sample 2
Target: Sal-like protein 4, full length isoform B (SALL4, Homo sapiens, UniProt Q9UJQ4-2, residues 1-616)
Technique: universal PBM
Form: double-stranded DNA, one strand shown
Matrix: in vitro
Tested at: not given
Notes: 8-mer, flanks averaged, mean of replicates
Reading: higher = stronger binding
Residues (chain): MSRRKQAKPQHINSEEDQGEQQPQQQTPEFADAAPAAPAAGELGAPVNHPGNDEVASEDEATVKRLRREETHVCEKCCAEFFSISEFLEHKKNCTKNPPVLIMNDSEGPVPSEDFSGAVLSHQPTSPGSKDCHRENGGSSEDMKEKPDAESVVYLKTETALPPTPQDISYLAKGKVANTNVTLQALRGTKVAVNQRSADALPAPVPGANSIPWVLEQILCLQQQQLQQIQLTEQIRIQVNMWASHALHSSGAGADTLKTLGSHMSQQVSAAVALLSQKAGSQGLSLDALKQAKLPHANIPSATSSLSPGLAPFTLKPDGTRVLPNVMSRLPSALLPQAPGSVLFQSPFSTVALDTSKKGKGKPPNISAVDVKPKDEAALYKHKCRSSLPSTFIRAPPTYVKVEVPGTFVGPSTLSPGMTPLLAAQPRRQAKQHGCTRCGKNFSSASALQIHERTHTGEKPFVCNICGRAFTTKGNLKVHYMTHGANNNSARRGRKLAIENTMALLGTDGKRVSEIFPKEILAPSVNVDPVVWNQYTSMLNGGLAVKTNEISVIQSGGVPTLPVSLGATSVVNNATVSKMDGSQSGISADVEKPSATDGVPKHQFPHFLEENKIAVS
Strand	E-score
CAAGATAG	-0.0578
TAGCGCGA	-0.159
ACTTGCCC	-0.114
GACTGTAC	-0.0106
ACCGTGTA	0.00472
CGTGGAGA	-0.122
CACCGATG	-0.0262
GCTTCCGA	-0.0146
AGTATTTA	0.312
AAAAGATG	0.171
ATTTAATC	0.301
TGCGAACA	0.115
GACCATGC	-0.0154
ATAAATGC	0.298
GGGAATTA	0.231
ACGGACTG	-0.161

Sample 3
Target: RING finger protein unkempt homolog, zinc fingers 1-6, GST-SBP tag (UNK, Homo sapiens, UniProt Q9C0B0, residues 30-357)
Technique: RNA Bind-n-Seq
Form: RNA
Matrix: in vitro
Tested at: not given
Notes: RNA with constant flanks, human and mouse sites, ends assumed
Relative to: input RNA pool
Reading: higher = stronger binding
Constant ends, left off below: GGGAGUUCUACAGUCCGACGAUC … CAACAGAGGAUUGAGCAUCA
Target sequence (chain): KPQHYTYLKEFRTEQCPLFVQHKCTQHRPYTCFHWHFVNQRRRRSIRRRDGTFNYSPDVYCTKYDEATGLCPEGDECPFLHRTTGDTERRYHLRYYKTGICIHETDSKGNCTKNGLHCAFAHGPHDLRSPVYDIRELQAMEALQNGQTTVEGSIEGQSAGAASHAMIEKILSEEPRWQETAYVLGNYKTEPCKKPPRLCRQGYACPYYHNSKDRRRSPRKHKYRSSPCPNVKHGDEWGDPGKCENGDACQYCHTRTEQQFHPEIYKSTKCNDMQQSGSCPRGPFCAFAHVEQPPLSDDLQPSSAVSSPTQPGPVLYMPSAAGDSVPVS
Strand	bound/input enrichment [ratio]
GGCUUCAAAAUUGACACUAUGGGAACCUACCAUGGUAUGACACUGAAAUCUGUAACGGAGGGUGCAUCUGCCCGGAAGACUCAGACUCCUGCAGCCCAGCCAGUACCAAGACCAGUUUCU	0.126
AGGCACUGGGAGGCUGUUUCAGGAAAGUGAGACUCAAGAGGAAGACAGAAAAGGUUGUAACGUAGAGGAAGUGAGACUGGUGAAUUGGUUUGAUUUUUUUCACAUCUAGAUGGCUGUCAU	0.553
AGUGAGGAGGGGGUGUUGUAACAAAAUUGGACAACUUAAAAGAAUGGUGUGUGCUGGGUGAAAGACAAAGACUAAAGAAUGAGGAAACAAACGUGAUGCCUGGCCAGUGACUGUCAUAUA	0.589
CCAACAACAGUGACUAAAACAUUCAAGACAAGAAAAGCGUCUGCACAGGCCAGCCUGGCAUCUAAAGAUAAAACUCCCAAGUCAAAAAGUAAGAAGAGGAAUUCUACUCAGCUGAAAAGC	0.333
AAACAUUUUUUCAGUCUGAAGACAGAAAGGUUUGUGUCUCAGCUUUCCUUGAGUGUGUUCAUACUAUUUGUUUUUAUUCACCUGACAGCCACGUGAUAGUAAUAAAAACAGGACAUGUGU	0.176
AAGAGGGCGAAUAUUCGCCUCCCACCUGAAGUAAAUCGGAUUUUGUAUAUAAGGAAUUUGCCAUACAAAAUCACAGCAGAAGAAAUGUAUGAUAUAUUUGGGAAAUAUGGACCUAUUCGU	0.211
AUCCGCAGGGAGAAGGACCAGUUCAAGGUGCCUCGGGACUGAGGCACACCCACGCUGGGACAGGGACUUCUAACCGACUGGCCUGCUGCUAAUGCAGGACAGUCUACUUUUCAGUUAAUU	0.103
ACUGGGAUUACAGGUAUGCACCUAUCAACUUGGGAGUUGAGGGUUUUUUGUUUUGUUUUUUUUUUUUUUAAGGUAAACAACAGUGGGAAAACGGCUCCUUCAUAAAUGAAAACUGUGCAC	0.684
AAGCGUGUUGAUAAUGGCUUCCUGCAAACGUCCGGUGGUGUUUUUUGUUUCUAAAUCAGGUCUUUUUUUAUGUUUUUCCCAUUUGCACCCUAAUUUGACAUCAAAUUUCCCCCCUCCUGU	0.617
ACUCUGUGGUUAGUAAGAGGCCUUUGCUCAGGUCCCAUUCUGUUCCUCUUCCCUGCUGAGUAUAGGUAGCUGGAUCCUGCGGUCCACUUUGCUUACUAUCUAACUGCCUUUGAUUGAUUG	0.125
UUGUGGAACACCAUGGUCAUCGGAGGCUAUGCUGAUGGAGAGAGCUUCCUCGGUUAUGUGGACAUGCUUGGUGUAGCCUAUGAAGCCCCUUCGCUGGCCACUGGUUAUGGUGCAUACUUG	0.087

Sample 4
Target: RNA binding protein fox-1 homolog 2, RRM domain, GST-SBP tag (RBFOX2, Homo sapiens, UniProt O43251-10, residues 100-194)
Technique: RNA Bind-n-Seq
Form: RNA
Matrix: in vitro
Tested at: 365 nM
Notes: natural RNA segment, single round, ends assumed
Relative to: no-protein control
Reading: higher = stronger binding
Constant ends, left off below: GGGAGUUCUACAGUCCGACGAUC … UGGAAUUCUCGGGUGCCAA
Strand	RBNS enrichment (R)
CUUCUGCCCAAGUCUGUGUCCCAUCAGACUUGCAGCCUUUCAGCUUAACAGUUGCCCGGUCCUGCUGGCCCCUUUUCCUCUGGCCCCCCUCUUCUGAAACAGGAUGUGCA	2.6
GCUUAGGGUAGGGAUGGUAAAUAUCCUCCCUGCAUGGCUUUAUCCUCCCUCUCAUCCCAAAGCAGGUAUCUUCUGGUUGUCACAGAGUUUCAUUGAGUCCAGCUGCAGCC	0.777
CUGGUCACUGGCCCUGCACACUGGGCUAUUGCUUUAUCCCUAUCCUGAGAGCAGCCCCUCCCCACCAUCCCUCCACAUGCUGCAAGGACAGACUGAAGGGCUGUGAGCAG	0.53
GAGGGACUUCUGUUUACCUUCCGCAGCACCCAGCAUCAAAGGACGGACUUCAGGGGACACGUUUAGUAUAUUAAGACAUGCUGAUGGAAACAGUAUCUUCAAAAAAAUCA	1.14
UUGAAUCAGAUUUUUUAAAAGGGGUAUUUGUUUUUUUAUAACAGGUAUUGAAACAAGUUAACUUGCAUUCCUAUGUAAGAUAGGAGGGGCUGAGGGGAUCCCCAGUGUUU	0.509
UUUCUUGUUCAUUCUUACUACGUAUUUUUUGACUUAAGAAUGACAUCUUUAGAUGCAUUUCAGAGCCAAUGAUGAUAUUUGCUUUAGAUAAUUAUUAUAUUAUUAUAAAU	1.5
UUCCCUGGUUGCCUCCUGGGCCCCAUGUGGCCAGCAGAUGCUGGAGUCUGCCUGCUCAGACUAUCACCUGUACCUCCCUGAAUACCAGCGUUUAACCUUCAAGACAUCCC	0.597
UGUGUGGCGGUAGCCCAUGUGCCUUUACCUAAUGUCAGAUUUGCAAGCGUUUCGUCUGUCUUUAUGUUAGGGGGUCUUAGGAACUUCAGAGAGAGAACUGAUAACUGGUU	0.898
GUCUCUAUCCUCUGUGGCCUUCAGCUAAUUUCUGCUCCCCUGAGAUUCGUCCUUCAGCCCCAUCAUGUGCUUUGGGAUGAGUGUAAAUAAAACGGGGCUGUGGCUUGGGA	0.542
UACCUCUUUUAGCCUAGAUACAUGGAUUCUUUUCAAAUCAGGAAAGAUUAGAAAAGGAACCCAAAAAACCCUUUAACAGUGUGAAUCUUUAUAGUAUUUGAAAAUGAGAA	0.604
UGGCCUGAACCUACAACUGCCAAAGAACCCAGCAACAAACCUCCCAGCUUGGAGCUUUAGUUUUUUUCUUUGUUUUUCUUGCUGCCCUCCUCCCUGCCCCCCUUUUCUUA	0.609
UCCUCAAGGACCCCUUCUUCCUUUAGGCCUUUCUGUCUUGAUCUGUGCAUUAAGAAAUUUAAGUUUGGGGCUGGAGAAAUGGCCCAUCGAUUAAGAAAGAGCACUGGUGG	0.958

Sample 5
Target: Histone acetyltransferase KAT6A, winged helix 1, GST fusion (KAT6A, Homo sapiens, UniProt Q92794, residues 1-85)
Technique: protein binding microarray
Form: double-stranded DNA, one strand shown
Matrix: in vitro
Tested at: not given
Notes: 8-mer, flanks averaged, mean of 2 arrays, mostly near background
Relative to: not given
Reading: higher = stronger binding
Target sequence (chain): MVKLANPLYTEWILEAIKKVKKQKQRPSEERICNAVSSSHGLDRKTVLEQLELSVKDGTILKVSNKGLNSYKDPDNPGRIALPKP
Strand	E-score
GACGAGAA	-0.202
AAATCAAC	-0.231
GAACTGTC	-0.00863
CAAGCGAG	-0.00891
CACCAAAG	-0.059
CGTGGTAG	-0.00125
TAGATTCA	-0.173
ATCCCCAG	-0.309
GATCAAGA	-0.0818
GACTGGTA	0.00607
AACCATAT	-0.146
ATGTGGCA	-0.0351
CCGAGCAA	0.00213
GTATGTGA	0.0198
AAAGGCAG	-0.124
ATGTTAAC	-0.0906
GCCCTGAA	-0.0348

Repeated from above (sample 5):
Strand	E-score
CAAGCGAG	-0.00891
CACCAAAG	-0.059
CGTGGTAG	-0.00125
TAGATTCA	-0.173
ATCCCCAG	-0.309
GATCAAGA	-0.0818
GACTGGTA	0.00607
AACCATAT	-0.146
ATGTGGCA	-0.0351
CCGAGCAA	0.00213
GTATGTGA	0.0198
AAAGGCAG	-0.124
